Experimental data pooled from the literature.
Parts stem from different laboratories: compare values within a part only. Substitutions count along the parent as printed.

Series 1 — technique: protein binding microarray; form: double-stranded DNA, one strand shown; medium: in vitro; concentration: not given; reference: not given; direction: higher = stronger binding
Target: Histone acetyltransferase KAT6A, both winged helices, GST fusion (KAT6A, Homo sapiens, UniProt Q92794, residues 1-181)
Setting: 8-mer, flanks averaged, mean of 2 arrays, mostly near background
Target sequence (chain): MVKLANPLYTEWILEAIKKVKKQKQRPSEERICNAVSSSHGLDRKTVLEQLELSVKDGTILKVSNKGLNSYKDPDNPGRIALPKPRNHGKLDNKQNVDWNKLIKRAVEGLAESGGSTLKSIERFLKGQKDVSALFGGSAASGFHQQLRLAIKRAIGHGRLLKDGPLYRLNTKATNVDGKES
For `GAATGCCA`, the E-score was -0.0475.
With `ATTCTAAA` the E-score was -0.0329.
With `CCTCTCAG` the E-score was -0.318.
`GCAGCAAA` gave an E-score of -0.102.
The E-score of `AGCCTACG` is reported as 0.179.
The E-score of `TGTGGAAA` is reported as -0.163.
With `ACGTAAAA` the E-score was -0.0519.
With `ACATGGGG` the E-score was -0.179.

Series 2 — technique: RNA Bind-n-Seq; form: RNA; medium: in vitro; concentration: 365 nM; reference: no-protein control; direction: higher = stronger binding
Target: RNA binding protein fox-1 homolog 2, RRM domain, GST-SBP tag (RBFOX2, Homo sapiens, UniProt O43251-10, residues 100-194)
Setting: natural RNA segment, single round, ends assumed
Target sequence (chain): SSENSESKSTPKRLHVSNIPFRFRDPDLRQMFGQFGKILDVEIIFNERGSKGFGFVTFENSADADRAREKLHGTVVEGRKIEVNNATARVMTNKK
Under “RBNS enrichment (R)”, `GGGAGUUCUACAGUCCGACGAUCAAAGCACCGCCUAUUUUGUAUAAAGUUUCUGAUUCCGUCUUGGCUGUCUAGUGCGUGCUAUCUGUGUGGGGAGAAGCUUCGUGAAUAUGCACCGUUUUGAUGCCCAUGCAUGGAAUUCUCGGGUGCCAA` is recorded as 0.88.
`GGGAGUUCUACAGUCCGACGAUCUCCCUGCCAGCCAACCCCCACCACUCUAAGAGAAAUUUUAGCUUAUAUAUGACGGUAUAUUUGCAAAAAGAGAAAGAAAAAUCUGGUAUUUGCAAUGAUCUGUGCCUUCUUGGAAUUCUCGGGUGCCAA`: “RBNS enrichment (R)” 1.12.
`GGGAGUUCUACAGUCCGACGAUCGAACAUGAAGAAAGAGCCUUUGGGAGAUUCCUGGCUUUCCAUUAGGGCUGAAAGUACAACGGUUCUUGGUUGGCUUUGCCUCGUGUUUAUAAAACUAGCUACUAUUCUUCUGGAAUUCUCGGGUGCCAA`: “RBNS enrichment (R)” 0.773.
`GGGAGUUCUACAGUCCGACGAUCAUCCUUGUCCACCCCUCCCCUGGCUCCCAUGACCAUGACUGAGGGACCAAUGGGCCCAAGAUAGGUGCCCCAGAGCUGUUAAUGACUUCAGCUGCCUCACUUCCUGCAAGUGGAAUUCUCGGGUGCCAA` — result for “RBNS enrichment (R)”: 0.763.
Under “RBNS enrichment (R)”, `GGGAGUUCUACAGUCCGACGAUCAACUCUUGAACUGAUGUCAGCACCCAAAUGGCUCCUGAAUUUAAGUCUGGGAGGACAUCUUUUUAUUUUUACAUGAAUCUUUAAACAAUUCUGUGAGCAGAGUUUCUAGCUGGAAUUCUCGGGUGCCAA` is recorded as 0.331.
`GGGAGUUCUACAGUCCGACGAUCCCUUGGGGAUCUGGGAGCUGAGCACUUGUCUAUACUUGUUCCUAAUUUUCCAAGUAUUUCUCUUGAAACUGCCAGUGCCUGAACUGUUGGGGCCAGGAUUUUCCCUGGUCUGGAAUUCUCGGGUGCCAA`: “RBNS enrichment (R)” 0.371.
`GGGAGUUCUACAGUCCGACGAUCUUUUCUUUACUGUAUGAAAACAGGAAAAUAAAAGAGAAAUUUAGAAAAUACAGCUCAUUACAAUAAAUUGUUGGAUUUCAUUUCCCCAGGUCUUCAGUGUUGAUGUAAAUUGGAAUUCUCGGGUGCCAA` — result for “RBNS enrichment (R)”: 0.6.
For `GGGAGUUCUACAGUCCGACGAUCUAGGAUCCCAAGUGGCAAGAAAGCUCACAUUUUUUGAGUUCAAAUGCUACUGUCUAAGCGCAAAGUCCCUCAUCCUGAAGUAGACUAGAGCCCGGCCACAAAUUCUGAGGUGGAAUUCUCGGGUGCCAA`, “RBNS enrichment (R)” read 0.385.

Series 3 — target: CCND3, cyclin fold, Cln2 fusion (human); technique: yeast growth competition, sequencing; medium: yeast; setting: weak parent motif; reference: not given; direction: higher = stronger binding
Starting sequence: CDKN1A docking peptide (human); SKACRRLFGPVDS; partner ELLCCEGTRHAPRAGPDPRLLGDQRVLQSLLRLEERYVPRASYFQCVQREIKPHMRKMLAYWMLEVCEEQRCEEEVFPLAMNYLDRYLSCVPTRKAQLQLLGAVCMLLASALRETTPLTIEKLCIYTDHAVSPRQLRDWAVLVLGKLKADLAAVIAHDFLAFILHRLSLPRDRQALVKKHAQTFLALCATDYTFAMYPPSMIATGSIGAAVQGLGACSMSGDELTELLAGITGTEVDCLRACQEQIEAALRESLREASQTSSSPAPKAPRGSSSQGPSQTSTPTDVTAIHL
`D12M`: “normalised enrichment score” 0.825.
`R6S` — result for “normalised enrichment score”: 0.436.
For `C4Y`, “normalised enrichment score” read -0.378.
For `A3T`, “normalised enrichment score” read 0.452.
For `L7D`, “normalised enrichment score” read 0.18.
`R5N`: “normalised enrichment score” 0.14.
`R5A`: “normalised enrichment score” -0.00287.
For `A3F`, “normalised enrichment score” read -0.422.
`R6V` — result for “normalised enrichment score”: 0.289.
Under “normalised enrichment score”, `K2E` is recorded as 0.429.
For `R5E`, “normalised enrichment score” read -0.127.
`D12S`: “normalised enrichment score” -0.137.
Under “normalised enrichment score”, `D12C` is recorded as 0.395.
`G9I` — result for “normalised enrichment score”: 0.445.

Single results of other studies
With `PhoQ, residues 284 288 289 292 302 303 NLAAMI` the fold induction was 13.6 (PhoP, residues 12 14 15 18 19 HLGGL (Escherichia coli, UniProt P23836); Sort-seq, refers to: YFP reporter; E. coli; PhoQ-PhoP variant library, together with: 10 µM Mg2+; reference: high Mg2+ state, higher = stronger signaling).
